Experimental data from different studies.
Lines come from different studies, so protocols differ.

Compound | organism | assay | system | setting | MIC
CC1(C)C(NC(=O)C(=NOC2(C(=O)O)CCC2)c2csc(N)n2)C(=O)N1OS(=O)(=O)O (stereo not shown) | Citrobacter freundii | agar dilution | ATCC 43864, susceptible |  | 0.125 µg/mL
N=C(N)NCCC[C@@H]1NC(=O)[C@H](CCCNC(=N)N)NC(=O)[C@@H](C(c2ccccc2)c2ccccc2)NC(=O)[C@H](Cc2c[nH]c3ccccc23)NC(=O)[C@@H](C(c2ccccc2)c2ccccc2)NC(=O)[C@@H](CCCNC(=N)N)NC(=O)[C@@H](CCCNC(=N)N)NC1=O | Candida albicans |  | CA3 |  | 32 µg/mL
O=C1/C(=C(O)/C=C/c2ccccc2)C(=O)[C@@]2(C(=O)OC3CCCCC3)CS[C@H](c3ccccc3)N12 | Streptomyces | bacterial growth, broth dilution | Mueller-Hinton broth | 24 h, 35 °C | 1.95 µg/mL
C[C@@H]1C(=O)O[C@@H](C)/C=C/C=C\[C@@H](C)[C@@H]2C=C[C@@H]3C[C@@]4(C)O[C@H]4[C@@H](C)[C@H]3[C@@H]2C(=O)C(Cl)(Cl)C1=O | Staphylococcus aureus |  | MSSA clinical isolate | resistant: DAP | 0.025 µg/mL
O=C1C(=C(O)NC23CC4CC(CC(C4)C2)C3)C(=O)C2(C(=O)OC3CCCCC3)CSC(c3ccccn3)N12 (stereo not shown) | Streptomyces | bacterial growth, broth dilution | Mueller-Hinton broth | 24 h, 35 °C | 7.81 µg/mL
C=C(NC(=O)c1csc(-c2nc3c(cc2O)-c2nc(cs2)C(=O)NC(C(C)O)C(=O)NC(=C(C)OC)c2nc(cs2)C(=O)NC2c4nc(cs4)C(=O)NC(COC(=O)c4c5c6c(cccc6n4O)COC(=O)C(OC4CC(C)(O)C(N(C)C)C(C)O4)C2OC5)c2nc-3cs2)n1)C(N)=O (stereo not shown) | Staphylococcus aureus | microbial growth, agar dilution | ATCC43300 |  | 0.0156 µg/mL
CC/C(O)=C1/C(=O)N2[C@@H](c3ccccc3)SC[C@]2(C(=O)OCc2ccc(Br)cc2)C1=O | Streptomyces | bacterial growth, broth dilution | Mueller-Hinton broth | 24 h, 35 °C | 15.6 µg/mL
COC1C=COC2(C)Oc3c(C)c(O)c4c(c3C2=O)C2=NC3(CCN(CC(C)C)CC3)NC2=C(NC(=O)C(C)=CC=CC(C)C(O)C(C)C(O)C(C)C(OC(=O)c2cccnc2)C1C)C4=O (stereo not shown) | Mycobacteroides abscessus | broth microdilution | ATCC 19977 |  | 0.02 µM
CC1(C)[C@H](NC(=O)/C(=N\OC2(C(=O)O)CCCCC2)c2csc(N)n2)C(=O)N1OS(=O)(=O)O | Citrobacter freundii | agar dilution | ATCC 43864, susceptible |  | 2 µg/mL
CNC(C)C1CCC(N)C(OC2C(N)CC(N)C(OC3OCC(C)(O)C(NC)C3O)C2O)O1 (stereo not shown) | Salmonella enterica serovar Typhimurium |  | 7731, Mueller-Hinton broth | 18 to 20 h, 37 °C | 1 µM
Cc1c(CN(C)C(=O)/C=C/c2cnc3c(c2)CC(N)C(=O)N3)oc2ccccc12 (stereo not shown) | Klebsiella pneumoniae | broth microdilution | AR-0034 |  | 8 µg/mL
C#CCO/N=C(\C(=O)N[C@@H]1C(=O)N(OS(=O)(=O)O)C1(C)C)c1csc(N)n1 | Citrobacter freundii | agar dilution | ATCC 43864, susceptible |  | 0.5 µg/mL
COc1c(NC(=O)c2ccc(NC(=O)c3ccc(NC(=O)[C@H](Cc4c[nH]nn4)NC(=O)c4ccc(NC(=O)/C(C)=C/c5ccc(O)cc5)cc4)cc3)cc2)ccc(C(=O)O)c1O | Mycolicibacterium phlei |  | DSM 750 |  | 4 µg/mL
CC1(C)[C@H](NC(=O)/C(=N\OCc2c(Cl)cccc2Cl)c2nsc(N)n2)C(=O)N1OS(=O)(=O)O | Citrobacter freundii | agar dilution | ATCC 43864, susceptible |  | 4 µg/mL
O=C1/C(=C(\O)C2CCCCC2)C(=O)[C@@]2(C(=O)OC3CCCCC3)CS[C@H](c3ccccc3)N12 | Streptomyces | bacterial growth, broth dilution | Mueller-Hinton broth | 24 h, 35 °C | 3.91 µg/mL
COc1cc(C(=O)O)ccc1NC(=O)c1ccc(NC(=O)c2ccc(NC(=O)[C@H](Cc3c[nH]nn3)NC(=O)c3ccc(NC(=O)/C(C)=C/c4ccc(O)cc4)cc3)cc2)cc1O | Mycolicibacterium phlei |  | DSM 750 |  | 2 µg/mL

Some of these lines once more:
Compound | organism | assay | system | setting | MIC
C=C(NC(=O)c1csc(-c2nc3c(cc2O)-c2nc(cs2)C(=O)NC(C(C)O)C(=O)NC(=C(C)OC)c2nc(cs2)C(=O)NC2c4nc(cs4)C(=O)NC(COC(=O)c4c5c6c(cccc6n4O)COC(=O)C(OC4CC(C)(O)C(N(C)C)C(C)O4)C2OC5)c2nc-3cs2)n1)C(N)=O (stereo not shown) | Staphylococcus aureus | microbial growth, agar dilution | ATCC43300 |  | 0.0156 µg/mL
CC/C(O)=C1/C(=O)N2[C@@H](c3ccccc3)SC[C@]2(C(=O)OCc2ccc(Br)cc2)C1=O | Streptomyces | bacterial growth, broth dilution | Mueller-Hinton broth | 24 h, 35 °C | 15.6 µg/mL
